Measurements from different studies.
Compare with care: the assays were run in different laboratories. ± marks the error that the study gave.

SMILES	assay	system	setting	AUC(0-t)
O=C(CCc1ccc(CNC(C(=O)OC2CCCC2)C2CCCCC2)cn1)NO (stereo not drawn)	–	human, plasma	oral, 40 mg once daily, day 1, geometric mean	138 ng·h/mL
CC(C)[C@H](NC(=O)CNC(=O)[C@H](CCC(N)=O)NC(=O)[C@H](C)N)C(=O)O	–	human, both sexes, plasma	intravenous infusion, 15 mg/kg/h, 2 h infusion, geometric mean	502 ng·h/mL
[2H]C([2H])([2H])Oc1cc2c(cc1OC([2H])([2H])[2H])[C@H]1CC(=O)[C@H](CC(C)C)CN1CC2	–	human CYP2D6 extensive metabolizers, plasma	oral, 25 mg, fasted, geometric mean	0.2 ng·h/mL
CC1C(c2c(F)ccc(F)c2F)CC(N[14C](=O)c2cnc3c(c2)CC2(C3)C(=O)Nc3ncccc32)C(=O)N1CC(F)(F)F (stereo not drawn)	liquid scintillation counting, refers to: total radioactivity	human, plasma	oral, 50 mg, single dose, 14C-labelled	2710 ± 759 ng-eq·h/mL
CN1CCC[C@]1(C)/C=C/S(=O)(=O)NC(=O)Nc1c2c(cc3c1CCC3)CCC2	–	human, plasma	oral, 12.5 mg twice daily, day 14, multiple ascending dose	28900 ng·h/mL
O=C(CCc1ccc(CNC(C(=O)O)C2CCCCC2)cn1)NO (stereo not drawn)	–	healthy male humans, plasma	oral, 40 mg, single dose, geometric mean	189 ng·h/mL
C=CC(=O)Nc1cc(Nc2nccc(-c3cn(C4CC4)c4ccccc34)n2)c(OC)cc1N(C)CCNC	–	healthy Chinese male human, plasma	oral, 110 mg almonertinib, metabolite, [14C] single dose	1030 ± 121 ng·h/mL
CN[C@@H](CCOc1cccc2ccccc12)c1ccccc1	–	healthy male humans, plasma	oral, 60 mg of dapoxetine, added: udenafil 200 mg	187 ± 106 ng·h/mL
[2H]C([2H])([2H])NC(=O)c1ccc(N2C(=S)N(c3ccc(C#N)c(C(F)(F)F)c3)C(=O)C2(C)C)cc1F	–	healthy male humans, plasma	oral, 80 mg, fasting, soft capsules	334000 ± 61500 ng·h/mL
Cn1c(=O)oc2ccc(-c3ccc(CC(C#N)NC(=O)C4CNCCCO4)c(F)c3)cc21 (stereo not drawn)	–	human, plasma	20 mg once daily, day 28, geometric mean	3500 ng·h/mL
CCc1cc(Nc2nc(-c3ccc(-n4cnc(C)c4)c(F)c3)cs2)c(C)cc1C	–	human, plasma	oral, 400 mg once daily, day 14, geometric mean	11900 ng·h/mL
CC(C)(O)c1ncc([S@](N)(=O)=NC(=O)Nc2c3c(cc4c2CCC4)CCC3)s1	–	healthy human, fasted	oral, 100 mg single dose, tablet formulation	74900 ng·h/mL

Repeated from above:
SMILES	assay	system	setting	AUC(0-t)
C=CC(=O)Nc1cc(Nc2nccc(-c3cn(C4CC4)c4ccccc34)n2)c(OC)cc1N(C)CCNC	–	healthy Chinese male human, plasma	oral, 110 mg almonertinib, metabolite, [14C] single dose	1030 ± 121 ng·h/mL
CN[C@@H](CCOc1cccc2ccccc12)c1ccccc1	–	healthy male humans, plasma	oral, 60 mg of dapoxetine, added: udenafil 200 mg	187 ± 106 ng·h/mL
